# Measurements pooled from the literature.
# Every numbered part comes from another study and shows a few of its results, in no order. Positions count from the first letter of the parent shown.

# Block 1 — method: DHFR PCA, deep sequencing; sample: yeast; together with: (+)-ABA 0.11 µM; relative to: wild-type fitted maximum; direction: higher = stronger binding
# Target: ABI1, truncated, D143A, DHFR fusion (Arabidopsis thaliana)
# Setting: methotrexate growth selection, single substitutions
# Starting sequence: PYL1, truncated, DHFR fusion (Arabidopsis thaliana); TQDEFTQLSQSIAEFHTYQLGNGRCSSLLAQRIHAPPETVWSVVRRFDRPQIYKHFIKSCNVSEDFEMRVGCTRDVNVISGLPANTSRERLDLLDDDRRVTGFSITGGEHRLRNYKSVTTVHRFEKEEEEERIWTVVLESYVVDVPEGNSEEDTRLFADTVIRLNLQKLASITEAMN; partner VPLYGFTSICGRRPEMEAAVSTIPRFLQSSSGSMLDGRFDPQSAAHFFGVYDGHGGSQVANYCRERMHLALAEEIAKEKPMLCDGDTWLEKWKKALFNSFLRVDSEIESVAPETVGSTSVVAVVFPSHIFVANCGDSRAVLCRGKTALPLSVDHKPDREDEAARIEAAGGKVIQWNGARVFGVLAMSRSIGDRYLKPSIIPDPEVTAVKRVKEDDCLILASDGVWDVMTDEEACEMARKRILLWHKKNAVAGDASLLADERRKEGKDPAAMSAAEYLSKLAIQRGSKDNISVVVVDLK
Variant,relative binding score [%]
T17R,2.93
A158S,-6.47
R99C,16.5
S104D,-7.28
I79A,18.4
V121L,9.27
S63M,3.93
V44G,-1.3
S27N,45.9
Q7A,42.3
V143L,0.0827
N114W,-6.66
E151C,25.1
D65L,0.5

# Block 2 — method: RNA Bind-n-Seq; molecule type: RNA; sample: in vitro; tested at: 200 nM; setting: whole 134-nt RNA, ends assumed; together with: 150 mM KCl; relative to: input library; direction: higher = stronger binding
# Target: Ras GTPase-activating protein-binding protein 1, full length (G3BP1, Homo sapiens, UniProt Q13283)
# UniProt Q13283, sequence (whole entry, looked up): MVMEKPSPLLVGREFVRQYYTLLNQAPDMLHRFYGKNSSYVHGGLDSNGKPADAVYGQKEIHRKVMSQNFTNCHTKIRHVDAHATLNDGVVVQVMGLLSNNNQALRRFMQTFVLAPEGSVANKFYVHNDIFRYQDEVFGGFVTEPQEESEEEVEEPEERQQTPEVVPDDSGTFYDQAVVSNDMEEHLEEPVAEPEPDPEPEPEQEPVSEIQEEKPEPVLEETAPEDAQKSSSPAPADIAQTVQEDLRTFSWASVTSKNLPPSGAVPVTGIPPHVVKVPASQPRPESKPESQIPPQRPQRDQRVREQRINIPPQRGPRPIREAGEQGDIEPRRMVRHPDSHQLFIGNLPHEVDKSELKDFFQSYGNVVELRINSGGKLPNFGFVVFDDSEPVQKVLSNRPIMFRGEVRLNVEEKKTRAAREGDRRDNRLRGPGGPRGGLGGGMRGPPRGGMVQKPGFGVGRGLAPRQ
# Constant ends, left off below: GGGAGUUCUACAGUCCGACGAUC … UGGAAUUCUCGGGUGUCAAGG
Strand,log2 enrichment
UCCCUAUUCCAGUCAUACACGUGGACCUAACUGCACCAGUAGCUUUUCUGAGAAUACUUGCUGAAAAGGAAGUUUUCUGGAAUGGGUAAG,-0.459
CCUGUGCUACACAUCGUAUGUACCGAAUCGGGGUUUGGGGUUUUUGGGGAAAAAAAGGGGAAAGUAUUAUGUUACGCCGUUCGGAUCUGC,0.156
CUCAAGUCCUGUGCUACACAUCGUAUGUACCGAAUCGGGUGGGUGGGGUGGGGAAAGUAUUAUGUUACGCCGUUCGGAUCUGCACUUCCA,1.27
CCUCAAGUCCUGUGCUACACAUCGUAUGUACCGAAUCGGUGGGGUGGGGUGGAAAGUAUUAUGUUACGCCGUUCGGAUCUGCACUUCCAG,0.324
ACCAUGCAGGUGGGCAUCUUUGGGAAGUGGGGCAAGGGGGGGAUAGGGAGGGGGGUAACACUUUGGGAACAGGUGGUCCCAAAUCGUUUC,0.908
CAAGUCCUGUGCUACACAUCGUAUGUACCGAAUCGGCCCCGGCCCCGGGCCCCGGAAAGUAUUAUGUUACGCCGUUCGGAUCUGCACUUC,-0.704
AAGUCCUGUGCUACACAUCGUAUGUACCGAAUCGGUGGAAAAAAAGGUUUUUUUGGAAAGUAUUAUGUUACGCCGUUCGGAUCUGCACUU,-1.53
CCUCAAGUCCUGUGCUACACAUCGUAUGUACCGAAUCGGUGGUUUGGAAAGGAAAGUAUUAUGUUACGCCGUUCGGAUCUGCACUUCCAG,-0.109
UGGUGUUAUUUUUGCACUACAAGGGCUCUGAAGACUGCCAGGCUUGAAAUGAAGAACGAUGUCACCUGCCUAUCACAGCCAGGUGACAAU,-2.39

# Block 3 — method: competition protein-binding microarray; molecule type: double-stranded DNA, one strand shown; sample: in vitro; tested at: 2 µM; together with: Cbf1 competitor, 0.05 µM; direction: higher = stronger binding; constant ends, left off below: … GTCTTGATTCGCTTGACGCTGCTG
# Target: Phosphate system positive regulatory protein PHO4, full length, GST-tagged (PHO4, Saccharomyces cerevisiae, UniProt P07270, residues 1-312)
# Setting: whole 60-bp probe, lowest competitor level
# Construct (chain): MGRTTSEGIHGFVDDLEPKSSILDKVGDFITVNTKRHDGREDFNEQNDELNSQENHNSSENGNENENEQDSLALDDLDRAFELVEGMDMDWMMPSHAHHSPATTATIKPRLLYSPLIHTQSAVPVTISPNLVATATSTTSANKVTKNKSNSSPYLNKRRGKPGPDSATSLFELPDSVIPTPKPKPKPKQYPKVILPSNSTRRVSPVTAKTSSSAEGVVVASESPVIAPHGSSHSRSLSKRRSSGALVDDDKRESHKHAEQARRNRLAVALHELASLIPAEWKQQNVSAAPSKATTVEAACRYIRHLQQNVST
Strand,fluorescence intensity [a.u.]
CAATCTGGTGGGGGCACCGTGAATATCACCGTCGTC,4890
CAATAAATCTTGTTCCTCGTGGCCGAATGGTTACGG,11200
ATGAATGCGGACCATCACCTGCAACAGCAGCAGCAA,4450
TTTGATCTGATAGGACTCGTGCCAGCACAAGTCCTT,8460
AACAATAGAGAATCGCACGTGGCAATATTCGCGTTA,18600
ACTTATCTGTCGAATCTCGTGACGGCACCTCCGACA,7610
TAGCTAGGGAGCCCTTGCATGACAATTCTGCTAACA,3610
GTTGCTTGCTAATTGCATGATCAAGTTGGGCCGACG,4070
GTCTTGTCTCATTTTCACGTGATATTCCCCACTTCA,12000
CACCACCTTGCAGGTCCCGTGTAGGTAGGAGTCGCA,6860
CATACCCAACCTTGAGTTGTGGGTGAAGATATTTGT,4590
CAGCGAACCAAAGGCACCGTGAGTAGAGGTATGAGA,4810
CTTCTGTAAATTTGTCACCATACTTGACGCGCCCCG,3780
CAAAAGCTGGTGTCCCACGTCAAGCCATCAACTTGG,4470
GTCTTGTCTCATTTTCACGTGCAGTTCCCCACTTCA,13200
TCCAACCTGCAAGGGGTCGTGCCAGTGACGAAAAGA,11100

# Block 4 — method: protein binding microarray; molecule type: double-stranded DNA, one strand shown; sample: in vitro; tested at: not given; relative to: not given; direction: higher = stronger binding
# Target: Histone acetyltransferase KAT6A, both winged helices, GST fusion (KAT6A, Homo sapiens, UniProt Q92794, residues 1-181)
# Setting: 8-mer, flanks averaged, mean of 2 arrays, mostly near background
# Target sequence (chain): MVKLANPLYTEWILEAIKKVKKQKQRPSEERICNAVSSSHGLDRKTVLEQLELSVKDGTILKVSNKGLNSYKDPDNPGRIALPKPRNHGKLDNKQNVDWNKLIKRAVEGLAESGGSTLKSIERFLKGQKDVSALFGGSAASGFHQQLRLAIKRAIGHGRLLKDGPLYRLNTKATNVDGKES
Strand,E-score
GCCCTCCA,-0.0947
GCCCTAGA,-0.145
AATGAGAC,-0.181
CGGCCTAC,0.119
CGTACGTA,0.0718
CATACTGA,-0.151
GAAAGTTC,-0.124
CCAGTTAG,-0.283
AATTTTGC,0.024
AGTGACAC,0.0461
GCCCTACA,-0.11
CCCTAGGG,-0.178
CCTTGAAG,-0.115
AGAGCCAT,-0.123
AAGCCTAT,-0.051
CAGGACTG,-0.167
CAAGGGAG,-0.111
CCGATTGC,0.153
ACCCAAAC,-0.205
GCTATTCC,-0.0647
GCCGCAGA,0.196
GGCGATGA,0.12
AGCGCACA,0.133
CGGGCGTC,0.281
AACGCACG,0.214

# Block 5 — method: RNA Bind-n-Seq; molecule type: RNA; sample: in vitro; tested at: 365 nM; relative to: no-protein control; direction: higher = stronger binding
# Target: RNA binding protein fox-1 homolog 2, RRM domain, GST-SBP tag (RBFOX2, Homo sapiens, UniProt O43251-10, residues 100-194)
# Setting: natural RNA segment, single round, ends assumed
# Constant ends, left off below: GGGAGUUCUACAGUCCGACGAUC … UGGAAUUCUCGGGUGCCAA
# Construct (chain): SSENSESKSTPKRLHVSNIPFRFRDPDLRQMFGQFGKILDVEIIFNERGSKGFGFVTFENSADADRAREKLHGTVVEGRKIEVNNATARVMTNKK
Strand,RBNS enrichment (R)
GGGAAAGACUGGCCCCCAUGAUUCAAUUACCUCCCCUUGGGUCUCUCCCACAACACGUGGGAAUUCUGGUAGAUACAAUUUCAAGUUGAGAUUUGGGUGGGGACAUAGCC,0.688
GGCAUAGAAUAGGUGCUCAGUAUAUGGUCAGUAAAUGUUCUAUUGAUUAUCAAUCAGUGAAAAAAGAAAUCUGUUUAAAAUACUGAAUUUUCAUCUCACUCCCAUUGCAA,0.489
UUUAUAUUAACCGCCACCUGUGGAUUUUGCAGUAAUUGCUAACACAUGCAGUUUUAAUGGGAAGUGGCUCUGCGCCUAAACGGAGUCCUAACGCUGCAUCAACGGGAGGG,0.388
AACCCAUAAGCAAAUCAGAUAACCCACUGACUAUGAGAAUUACUUUAUAUAGAUAAUUCUUGACUGUAAAACAUUUUGACCAGUGUUUUACAACAUGUACAUAAGAAUAC,0.407
CCAUGGAUGCAUAUAGGAUGUUUGGGAGCAUCAUCCGUGAAGAAAAAAUCAAUUAAAUCAUUGUGUUCAACAGGAAUAUUUAAAAUAUUCUGCAUGAAUCCUGUGGCUGU,0.61
AGGAAGGGCGGGUGGUGUGGACAGUGUGUCAGGAGUGGUGUCACACGUGUCACACUGUUUGGAGGGGGAAGGGCAUUGCCAGCCACUGUCUGCCGAGUCGUCUGUGUAAA,0.775
UGGCUAGCUAUGGUUUUCAGUACAUUUCCUACUUUAAGAGUAAUUACUGACAAAUAUGUAUUUCCUAUAUGUUUAUACUUUGAUUAUAAAAAAGUAUUUUGUUUUGAUUU,0.658
AAAUAAUACUUUAGGGUGGCACUGACCGCUAUACCAGCAGCCCCAUGAGCACUCAAAGUGCCUUUCGAACCAUAAUGCCAUCUUGAAUUUGGGUCCUCUCGGCCCCAACU,0.217
GGGUGUAAUUUUUCCCUUAAAAAGGUGUGUGACAACAAGAGAAGUUGCCUGCAUGCCGGUUUAAAUUGUUUAUGUAAAAAUGCUGUUAUAAGACAUAGAUUUAUCCUAGU,2.35
CUGGUUAGUACUGGUCCCCUUCUGGGCAACAUGGCCCUACCAGACACUGCUGCUGCCCCGUCGGCAUGUGCGGCGGCUACCUGAGCUGACCCCUGCUGAGCGUGAUGGUC,0.824
AGCACAACACAAAUUCCAUCCAAGAGGAGACUCUUUCCCAUGGUGUUGUCCUGGGUCUGGCAGUGGUUGUGAUUUAUAGCCAAUUGUGCUAAAGGAUUUUUCUACCUUGA,0.287
GGGCCCUGGAAAACGUGAGAGACUGCCCUGAGCUGGUCCAGUGGGCCAGCACUUUAUACCAACUCAGCAUUUAAGGGAAGUAUCUUAGAUUGCCUCCAUCUCAAUGUGAA,0.926

# Some of these lines once more (block 1):
Variant,relative binding score [%]
V121L,9.27
S63M,3.93
V44G,-1.3
S27N,45.9
Q7A,42.3
V143L,0.0827
N114W,-6.66
E151C,25.1
D65L,0.5
